Earlier results that unrelated publications cite.

The logP of `COc1ccc2c3c1O[C@H]1[C@@H](O)CC[C@H]4[C@@H](C2)N(C)CC[C@@]341` is reported as 1.16.
`O=C(C[18F])NCCCCCC(=O)Nc1ccccc1` gave a logP of 1.39.
With `ClC(Cl)=C(c1ccc(Cl)cc1)c1ccc(Cl)cc1` the logP was 6.37.
`Cc1ncc(OC[C@@]2(c3cccc(F)c3)C[C@H]2C(=O)Nc2ccc(F)cn2)c(C)n1` gave a logP of 3.04 (octanol/water).
`ClC1=C(Cl)C2(Cl)C3C4CC(C5OC45)C3C1(Cl)C2(Cl)Cl` (stereo not shown) has a logP of 4.88.
`CCCCN(CCCC)CCC(O)c1cc2c(Cl)cc(Cl)cc2c2cc(C(F)(F)F)ccc12` (stereo not shown) has a logP of 8.6.
For `O=C(O)C(F)(F)C(F)(F)C(F)(F)C(F)(F)C(F)(F)C(F)(F)C(F)(F)F`, the logP was 3.6 (n-octanol/water).
`COc1ccc(C(c2ccc(OC)cc2)C(Cl)(Cl)Cl)cc1` has a logP of 5.08.
The logP of `Cc1c2oc3c(C)ccc(C(=O)N[C@@H]4C(=O)N[C@H](C(C)C)C(=O)N5CCC[C@H]5C(=O)N(C)CC(=O)N(C)[C@@H](C(C)C)C(=O)O[C@@H]4C)c3nc-2c(C(=O)N[C@@H]2C(=O)N[C@H](C(C)C)C(=O)N3CCC[C@H]3C(=O)N(C)CC(=O)N(C)[C@@H](C(C)C)C(=O)O[C@@H]2C)c(N)c1=O` is reported as -0.1.
For `CNC(C)Cc1ccc2c(c1)OCO2` (stereo not shown), the logP was 2.07.
With `CC1(C)CCC(CN2CCN(c3ccc(C(=O)NS(=O)(=O)c4ccc(NCC5CCOCC5)c([N+](=O)[O-])c4)c(Oc4cnc5[nH]ccc5c4)c3)CC2)=C(c2ccc(Cl)cc2)C1` the logP was 8 (octanol/water).
With `C[C@@H]1CC[C@@]2(OC1)O[C@H]1C[C@H]3[C@@H]4CC=C5C[C@@H](O[C@@H]6O[C@H](CO)[C@@H](O[C@@H]7O[C@@H](C)[C@H](O)[C@@H](O)[C@H]7O)[C@H](O)[C@H]6O[C@@H]6O[C@@H](C)[C@H](O)[C@@H](O)[C@H]6O)CC[C@]5(C)[C@H]4CC[C@]3(C)[C@H]1[C@@H]2C` the logP was 1.71.
The logP of `CC(C)C[C@H](NC(=O)CNC(=O)c1cc(Cl)ccc1Cl)B(O)O` is reported as 2.07.

A few entries again:
For `CNC(C)Cc1ccc2c(c1)OCO2` (stereo not shown), the logP was 2.07.
The logP of `CC(C)C[C@H](NC(=O)CNC(=O)c1cc(Cl)ccc1Cl)B(O)O` is reported as 2.07.
